Published values pooled from the literature.
Parts stem from different laboratories: compare values within a part only. Substitutions count along the parent as printed.

Sample 1 — target: CCNF, cyclin fold, Cln2 fusion (human); technique: yeast growth competition, sequencing; matrix: yeast; notes: strong parent motif; reference: not given; direction: higher = stronger binding; endpoint: normalised enrichment score
Parent: PKMYT1 docking peptide (human); SFEPRNLLSLFED; partner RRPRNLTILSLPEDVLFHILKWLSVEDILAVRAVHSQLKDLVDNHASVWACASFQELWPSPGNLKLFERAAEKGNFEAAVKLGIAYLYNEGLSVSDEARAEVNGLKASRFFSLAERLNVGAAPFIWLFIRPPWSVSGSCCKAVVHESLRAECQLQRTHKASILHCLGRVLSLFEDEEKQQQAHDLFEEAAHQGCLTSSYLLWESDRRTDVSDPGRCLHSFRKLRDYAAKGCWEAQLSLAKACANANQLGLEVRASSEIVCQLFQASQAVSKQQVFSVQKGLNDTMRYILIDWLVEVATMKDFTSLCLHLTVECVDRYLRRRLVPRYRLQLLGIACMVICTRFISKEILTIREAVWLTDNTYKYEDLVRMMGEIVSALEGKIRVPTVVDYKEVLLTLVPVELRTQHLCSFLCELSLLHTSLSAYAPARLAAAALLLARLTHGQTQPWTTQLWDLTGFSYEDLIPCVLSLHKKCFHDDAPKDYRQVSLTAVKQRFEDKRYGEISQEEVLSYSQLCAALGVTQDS
SFEPRNLLSLFEC [D13C]: 1.18
SFEPRNGLSLFED [L7G]: -0.871
SFEPRNLWSLFED [L8W]: -0.165
SFLPRNLLSLFED [E3L]: 1.38
SFEPRALLSLFED [N6A]: 1.04
SFEPKNLLSLFED [R5K]: 0.801
SFEPRNLLSLFWD [E12W]: 1.56
SFEPRNLLSLYED [F11Y]: -0.182
SFEPRNLLSLLED [F11L]: 0.811
SFEDRNLLSLFED [P4D]: -0.773
SFEPRNLLSLFEH [D13H]: 1.25
STEPRNLLSLFED [F2T]: 1.32
RFEPRNLLSLFED [S1R]: 2.28
SFHPRNLLSLFED [E3H]: 2.42
SYEPRNLLSLFED [F2Y]: 2.19
YFEPRNLLSLFED [S1Y]: 1.63
SFEPRQLLSLFED [N6Q]: 0.815
SFEPRELLSLFED [N6E]: -0.469
SFEPRNELSLFED [L7E]: -1.63
SFEPYNLLSLFED [R5Y]: -1.16
SFWPRNLLSLFED [E3W]: 1.49
SFEPRNILSLFED [L7I]: -0.857
SFEPRNLMSLFED [L8M]: 2.08
SFEPNNLLSLFED [R5N]: -1.27
SFEPRNLLSPFED [L10P]: -1.07

Sample 2 — technique: DHFR PCA, deep sequencing; matrix: yeast; together with: (+)-ABA 0.11 µM; reference: wild-type fitted maximum; direction: higher = stronger binding; endpoint: relative binding score
Target: ABI1, truncated, D143A, DHFR fusion (Arabidopsis thaliana)
Notes: methotrexate growth selection, single substitutions
Parent: PYL1, truncated, DHFR fusion (Arabidopsis thaliana); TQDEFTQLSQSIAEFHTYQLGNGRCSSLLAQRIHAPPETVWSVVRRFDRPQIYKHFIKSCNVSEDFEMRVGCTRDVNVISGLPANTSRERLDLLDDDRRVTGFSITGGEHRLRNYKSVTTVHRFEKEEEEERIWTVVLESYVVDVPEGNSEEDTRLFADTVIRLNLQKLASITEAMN; partner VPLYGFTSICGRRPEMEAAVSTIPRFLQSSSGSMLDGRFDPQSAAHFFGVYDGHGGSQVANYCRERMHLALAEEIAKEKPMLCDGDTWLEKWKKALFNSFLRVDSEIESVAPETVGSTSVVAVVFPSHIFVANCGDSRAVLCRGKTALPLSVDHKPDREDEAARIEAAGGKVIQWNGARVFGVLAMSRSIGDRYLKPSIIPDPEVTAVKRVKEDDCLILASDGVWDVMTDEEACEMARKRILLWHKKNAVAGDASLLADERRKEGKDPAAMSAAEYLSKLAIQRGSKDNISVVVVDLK
S26L: -0.118%
I133R: 10.1%
R163Q: 33.7%
A35S: 3.84%
A84F: 84.5%
F5R: 14.2%
G81P: 33.1%
L164R: 11.2%
E129K: 46.8%
E109T: 12.7%
V43M: 8.19%
V44H: -2.64%
D153H: 1.18%
H34G: 9.39%
G23C: -8.84%
K58C: 2.52%
Q31E: 4.63%
V62Q: -5.69%
V40M: -7.55%

Sample 3 — technique: protein-binding microarray; form: double-stranded DNA, one strand shown; matrix: in vitro; concentration: not given; direction: higher = stronger binding; endpoint: E-score
Target: Max dimerization protein 1, bHLH-zipper, MAX partner unstated (MXD1, Homo sapiens, UniProt Q05195, residues 56-136)
Notes: k-mer, scored over probes, only values ≥0.25
Residues (chain): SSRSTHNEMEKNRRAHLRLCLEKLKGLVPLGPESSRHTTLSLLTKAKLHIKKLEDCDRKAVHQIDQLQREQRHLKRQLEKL
ATTCATGC: 0.268
ACATGCTG: 0.422
CATCATGC: 0.257
AGCGTGGC: 0.381
CCTCGTGA: 0.365
GGCGTGCA: 0.302
CTACATGC: 0.265
ACGTGTTG: 0.413
AGATGGGG: 0.287
TCCACGCA: 0.321
ATCACGCG: 0.329
CCTCCCCC: 0.296
CATGGGTC: 0.275
GCGTGGCC: 0.374
GGCGGGGA: 0.388
GTGGAAAC: 0.267
CGCCCCTC: 0.283
AACCCACG: 0.375
CACGAGAA: 0.371
CGTGGTAA: 0.362
CGTCATGC: 0.274
ACGTGCCG: 0.329
CCACGCGA: 0.402

Sample 4 — technique: RNA Bind-n-Seq; form: RNA; matrix: in vitro; concentration: 365 nM; reference: no-protein control; direction: higher = stronger binding; endpoint: RBNS enrichment (R)
Target: RNA binding protein fox-1 homolog 2, RRM domain, GST-SBP tag (RBFOX2, Homo sapiens, UniProt O43251-10, residues 100-194)
Notes: natural RNA segment, single round, ends assumed
All sequences stand within: GGGAGUUCUACAGUCCGACGAUC … UGGAAUUCUCGGGUGCCAA
Construct (chain): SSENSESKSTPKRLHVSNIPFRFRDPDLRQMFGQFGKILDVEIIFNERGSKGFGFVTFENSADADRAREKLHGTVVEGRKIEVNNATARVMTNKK
CUGUCAGAGCCCUGGGGGUGUCCACCGGGGACAGACCCAGGGGCGGGCAGAGAGGGAAGGAGGGAGGAGGCAUCUUCCCUGAAGCCCCCAAUCUGGCCCCCCCCUCCCCA: 0.207
AACCCAAGACCGCAGACUGGGUGUAAGGGAUGCCCGGAACACCCUGACCAGGCCCCUCCCCUAAGACUUCUUGGAUAUUUCCCAGGAGAAUCCCACAUUCACCGCCAAAC: 0.494
GAACGGUACAGCCCCGGCCUGACCCGGGGACCUUCAGCCUGGACACCCGGCAGCUUCUGGAGUUUGUCAGUGGAGGCAGAGGGGAUCCGGCCAGGCCCCUCUGUCCAGAA: 0.257
UGGAAUGGGUUCUGUGUUUGAAAGCUGUUAGAACACUAACCAGCAGGUUACUUCUCUCCGCAGGGGCUGAAGACAGAUGUGUCAGCCCAUGGGAACCAGCCUGGGCCCUA: 0.381
CAAGGCCCGGUGGUUGACAUCUGUGUGGUUUGUUAGAUGAGACAAAAUGACCAUUAAAUGAGUUUAUAGAUUAUUCUGUAUCAAGAUAAAUCUGAUUCCAGUUAAGCUAU: 0.467
UGAAGGCCCUCCACAGUGGACAGAGCAACUUCCUUUCCAGCCUCUGCUGGUAGCAUGCUGCAGCUUCUGUGUUAAAGGUCCUCUGGAGCUCGUGUAAGACAGGAAGAACA: 1.47
UAAAAAUUCUAAUUCCUCAGGUUUGGCCUUUUAAGUUAUGGCUGAAGACCUUUAAUGAUACUUAUGAUGCACUCAGUGCCAUACAAUAGUGUUUUAAGAAGCACAUGGCC: 0.508
GGCUUUAUAGUAAAUUUGUUUCUAAAUCUAAUAACUUUAAAAUAGAAACUUAAGUAAAUAUGGCUUACACCCUAACACUGGGGUGGUUUUCUUUUCUAAUGUAGCUUUCC: 0.339
CCUGUCCCCCCCGGCCAGCCUCCCCAACUUGAUGUUUGUGUUUUGUUUGGGGGGAUAUUUUUCAUAAUUAUUUAAAAGACAGGCCGGGCGCGGUGGCUCACGUCUGUAAU: 0.395
GGGAGUCCACAACUAUGAAUGUAUUUACUUCCAACAUUUCCCAAAAUGAAAACUAUAAAUUGCAAGUAUUCUGGAAUUGGGAAAUACUUAUUUUAAAUGAGAUCAGGUAG: 1.05
AGAAGGAAAGGAGGAAGAAAUGUUUUCUUAGGGGAAUUCGCUAGGUUUUAACGAUUUGUUUCUCCUGCUCCUCUUCUGUCAGACCUGACCCCACACAAACCUGUCCCCUC: 0.267
GCUGGAUGUCGCAUUGCAUGUUUGCUGAGUCCUCCUCAUUGCUGAUGUUAGGAUCCUUCAACAGUUUCUCAGAUGCCAGCUAUGGCUGGCAUCCAGUAUGGUGGUGUAAU: 26.5

Sample 5 — target: ATF2, bZIP domain (human); technique: DHFR protein complementation; matrix: yeast; reference: wild-type JUN-FOS pair; direction: higher = stronger binding; endpoint: binding fitness
Notes: single substitutions, most at no-binding floor
Parent: JUN, bZIP domain (human); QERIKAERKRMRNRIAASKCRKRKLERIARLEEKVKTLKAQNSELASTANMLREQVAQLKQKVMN; partner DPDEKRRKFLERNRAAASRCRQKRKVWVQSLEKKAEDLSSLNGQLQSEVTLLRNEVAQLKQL
K39G: -1.47 natural log
V56W: -1.5 natural log
L31V: -1.48 natural log
L45E: -1.39 natural log
M51F: -1.34 natural log
N42A: -1.48 natural log
T48L: -1.38 natural log
Q41G: -1.49 natural log
Q41K: -1.43 natural log
K39F: -1.45 natural log
S43M: -1.41 natural log
R30H: -1.37 natural log
A40F: -1.42 natural log
I28F: -1.54 natural log
A40G: -1.47 natural log
L52Q: -1.48 natural log
T48E: -1.31 natural log
Q55K: -1.25 natural log
E33P: -1.52 natural log
E54A: -1.28 natural log
I28T: -1.43 natural log
T37P: -1.52 natural log
E32S: -1.39 natural log
L31I: -1.53 natural log

Sample 6 — technique: protein binding microarray; form: double-stranded DNA, one strand shown; matrix: in vitro; concentration: not given; reference: not given; direction: higher = stronger binding; endpoint: E-score
Target: Histone acetyltransferase KAT6A, both winged helices, GST fusion (KAT6A, Homo sapiens, UniProt Q92794, residues 1-181)
Notes: 8-mer, flanks averaged, mean of 2 arrays, mostly near background
Target sequence (chain): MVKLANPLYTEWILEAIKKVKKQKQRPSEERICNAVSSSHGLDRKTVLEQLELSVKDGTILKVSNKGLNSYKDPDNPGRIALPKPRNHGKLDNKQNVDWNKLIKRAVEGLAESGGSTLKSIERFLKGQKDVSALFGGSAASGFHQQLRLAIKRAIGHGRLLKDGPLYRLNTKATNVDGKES
CCGGTAAG: 0.167
CGAAAGGC: 0.106
AGGCGCAG: 0.0474
CACGTGCG: 0.198
ACAGCGCA: 0.203
AAATGCAA: -0.21
GGATGGCA: -0.00779
GGAAGCCA: -0.0437
ACTCCTAA: -0.0784
GCTAGAGC: 0.0533
CCGCTCGA: 0.202
AGGTCTTC: -0.183
GTTCCAGA: -0.0653
CCTTATCA: -0.0816
CGATTGAA: -0.0209
CCAGATTC: -0.159
ACACTAAT: -0.0363

Excerpt of the above (sample 6):
CCGCTCGA: 0.202
AGGTCTTC: -0.183
GTTCCAGA: -0.0653
CCTTATCA: -0.0816
CGATTGAA: -0.0209
CCAGATTC: -0.159
ACACTAAT: -0.0363
